Assay results of several laboratories.
Compare with care: the assays were run in different laboratories.
Method: steady-state kinetics
B1: sacB S422A (Priestia megaterium, UniProt D5DC07); chain KGNDSKDFNNSYGISHITRDNMVKIPQQQNSDQFKVPAFDESTIKNIASAKGKNASGNTIDLDVWDSWPLQNADGTVATYHGYQIVFALAGDPKDSNDTSVYLFYKKAGDKSIDSWKNAGRVFKDSDKFVPNDPHLKNQTQEWSGSGTLTKDGKVRLFYTDYSGKQYGKQTLTTAQVNMSQPNDNTLKVDGVEDYKSIFDGDGKIYQTVQQFIDEGGYDTGDNHTLRDPHYIEDNGHKYLVFEANTGTEDGYQGEDSLYNRAYYGGNNPFFQSEKKKLLEGSNKEKASLANGALGIIELNDDYTLKKVMKPLITSNTVTDEIERANIFKKDGKWYLFTDSRGSKMTIDGIGQDDVYMLGYVSNTLTGKYKPLNDTGLVLHMDLDPNDKTFTYAHFAVPQTKGDNVVITSYMTNRGFYEDNHSTFAPSFLVNIDGSKTSVVKDRVLEQGQLTVDED
B2: patA (Escherichia coli, UniProt P42588); chain MNRLPSSASALACSAHALNLIEKRTLDHEEMKALNREVIEYFKEHVNPGFLEYRKSVTAGGDYGAVEWQAGSLNTLVDTQGQEFIDCLGGFGIFNVGHRNPVVVSAVQNQLAKQPLHSQELLDPLRAMLAKTLAALTPGKLKYSFFCNSGTESVEAALKLAKAYQSPRGKFTFIATSGAFHGKSLGALSATAKSTFRKPFMPLLPGFRHVPFGNIEAMRTALNECKKTGDDVAAVILEPIQGEGGVILPPPGYLTAVRKLCDEFGALMILDEVQTGMGRTGKMFACEHENVQPDILCLAKALGGGVMPIGATIATEEVFSVLFDNPFLHTTTFGGNPLACAAALATINVLLEQNLPAQAEQKGDMLLDGFRQLAREYPDLVQEARGKGMLMAIEFVDNEIGYNFASEMFRQRVLVAGTLNNAKTIRIEPPLTLTIEQCELVIKAARKALAAMRVSVEEA
B3: protein (Phaseolus vulgaris, UniProt V7ASW7); chain MALKDAQDQQDPRLERISSAIRVIPDFPKPGILFQDITTLLLDPKAFKDTIDLFVERYRDQNINVVAGVEARGFIFGPPIALAIGAKFVPMRKPNKLPGEVISEEYSLEYGTDKIEMHVGAVQPGERALVIDDLIATGGTLDAAIKLLERVGVDVVECACLIELPELKGRDRLGDKPLFVLVKVTA
B4: GTPBP3 E315A (Homo sapiens, UniProt Q969Y2); chain TRRSSGAPAPGSGATIFALSSGQGRCGIAVIRTSGPASGHALRILTAPRDLPLARHASLRLLSDPRSGEPLDRALVLWFPGPQSFTGEDCVEFHVHGGPAVVSGVLQALGSVPGLRPAEAGEFTRRAFANGKLNLTEVEGLADLIHAETEAQRRQALRQLDGELGHLCRGWAETLTKALAHVEAYIDFGEDDNLEEGVLEQADIEVRALQVALGAHLRDARRGQRLRSGVHVVVTGPPNAGKSSLVNLLSRKPVSIVSPEPGTTRDVLETPVDLAGFPVLLSDTAGLREGVGPVAQEGVRRARERLEQADLILAMLDASDLASPSSCNFLATVVASVGAQSPSDSSQRLLLVLNKSDLLSPEGPGPGPDLPPHLLLSCLTGEGLDGLLEALRKELAAVCGDPSTDPPLLTRARHQHHLQGCLDALGHYKQSKDLALAAEALRVARGHLTRLTGGGGTEEILDIIFQDFCVGK
B5: enzyme (Halomonas elongata, UniProt E1V931); chain MKIAVPKEIKNHEYRVALTPSGARELVGRGHDVIVQAAAGEGAGFSDADFEAAGARLEADVAKLWDDAELILKVKEPQAEEVARLSAGQTLFTYLHLAAEESLTKGLLDSGATCIAYETITAPEGGLPLLAPMSTVAGRMAVQAGAHSLEKAQGGAGILLPGVPGVAPARVTVIGGGVVGENAARMALGLGAEVTVLDKSIPRLETLDDRYQGRMKTVFSTADALEEAVRESDLIIGAVLVPGAAAPKLITRDMLSDMKPGSVLVDVAIDQGGCFETSKPTTHAEPTYVVDGVVHYCVANMPGAVARTSTQALTNATLPFVVALADKGWQKALADDDHFAAGLNVHDGKLTYRAVAEAFGLEYVEAASLIG
B6: enzyme F187A (Thermococcus kodakarensis, UniProt Q5JID5); chain MLYVEILGNLPEMARDEVKAMLELGGGEIIGQDYLFLKVDAGEKAFPFLDRLGLAHEYGLLLVEADSVEELLQKAGEVEWPIKGAFKVDTETMANCRHDVLDLPRKLGAVIHAQGFRVNLSKPDTVVRVYCGERLYAGIRLRYFDPKDFEKRKAHHRPFFRPISLHPRVSRALVNLTKATREILDPAMGAGGILIEAGLLGLRVYGVDIRPEMVEGAETNLKHYGVRDYTLKLGDATRLEDLFPDKKFEAVATDPPYGTAATLAGRKRDELYRKALRSIYNVLEDGGRLAIAFPTDFNGKAEAEAVGFRTLGRYYQRVHKSLERYFYVFEK
B7: protein Y93P (Thermus thermophilus, UniProt Q5SKR5); chain MSAPKPFVIGIAGGTASGKTTLAQALARTLGERVALLPMDHYYKDLGHLPLEERLRVNYDHPDAFDLALYLEHAQALLRGLPVEMPVYDFRAPTRSPRRTPVRPAPVVILEGILVLYPKELRDLMDLKVFVDADADERFIRRLKRDVLERGRSLEGVVAQYLEQVKPMHLHFVEPTKRYADVIVPRGGQNPVALEMLAAKALARLARMGAA
Sequence of UniProt Q04JB0 (whole entry, looked up): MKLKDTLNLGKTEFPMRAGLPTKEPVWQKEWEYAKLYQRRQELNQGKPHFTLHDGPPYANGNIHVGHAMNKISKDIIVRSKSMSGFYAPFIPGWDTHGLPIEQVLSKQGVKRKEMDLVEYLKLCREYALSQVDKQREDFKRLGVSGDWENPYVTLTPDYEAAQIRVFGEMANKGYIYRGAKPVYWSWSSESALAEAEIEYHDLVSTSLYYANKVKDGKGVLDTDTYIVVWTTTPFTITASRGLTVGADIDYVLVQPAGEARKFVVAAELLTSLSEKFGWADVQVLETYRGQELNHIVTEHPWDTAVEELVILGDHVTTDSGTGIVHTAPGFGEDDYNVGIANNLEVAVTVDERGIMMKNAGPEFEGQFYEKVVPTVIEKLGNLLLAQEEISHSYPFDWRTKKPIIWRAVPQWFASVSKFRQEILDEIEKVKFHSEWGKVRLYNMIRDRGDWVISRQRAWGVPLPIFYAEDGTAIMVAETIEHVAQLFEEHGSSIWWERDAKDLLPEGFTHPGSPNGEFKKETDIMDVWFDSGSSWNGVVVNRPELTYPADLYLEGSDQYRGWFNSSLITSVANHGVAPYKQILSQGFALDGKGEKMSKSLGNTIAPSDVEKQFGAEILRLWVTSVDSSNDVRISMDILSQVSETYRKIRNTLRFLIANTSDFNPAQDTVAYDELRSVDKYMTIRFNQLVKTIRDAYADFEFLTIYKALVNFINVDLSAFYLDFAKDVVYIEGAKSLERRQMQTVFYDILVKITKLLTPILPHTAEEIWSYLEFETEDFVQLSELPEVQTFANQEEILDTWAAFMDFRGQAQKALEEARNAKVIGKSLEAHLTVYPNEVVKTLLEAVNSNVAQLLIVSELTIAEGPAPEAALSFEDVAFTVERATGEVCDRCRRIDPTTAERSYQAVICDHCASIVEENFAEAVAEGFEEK
Sequence of UniProt P45370 (whole entry, looked up): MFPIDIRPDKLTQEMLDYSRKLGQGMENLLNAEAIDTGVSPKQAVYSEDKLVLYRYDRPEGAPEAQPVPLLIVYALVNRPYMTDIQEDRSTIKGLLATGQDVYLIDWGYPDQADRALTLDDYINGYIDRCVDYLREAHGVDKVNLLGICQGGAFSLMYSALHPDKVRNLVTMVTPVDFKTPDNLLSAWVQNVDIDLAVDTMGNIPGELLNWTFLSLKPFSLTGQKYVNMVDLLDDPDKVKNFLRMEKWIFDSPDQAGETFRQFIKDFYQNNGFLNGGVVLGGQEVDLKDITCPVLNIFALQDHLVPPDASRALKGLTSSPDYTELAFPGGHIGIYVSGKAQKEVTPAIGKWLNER
Sequence of UniProt P07914 (whole entry, looked up): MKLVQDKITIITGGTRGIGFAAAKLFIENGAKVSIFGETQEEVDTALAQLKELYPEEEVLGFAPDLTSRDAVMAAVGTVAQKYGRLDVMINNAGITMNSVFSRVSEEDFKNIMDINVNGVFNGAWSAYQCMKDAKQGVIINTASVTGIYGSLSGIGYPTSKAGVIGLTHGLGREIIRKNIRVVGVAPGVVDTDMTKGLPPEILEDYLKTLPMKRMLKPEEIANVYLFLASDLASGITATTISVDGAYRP

B1 (sacB S422A) — Km (OC[C@H]1O[C@@](CO)(O[C@H]2O[C@H](CO)[C@@H](O)[C@H](O)[C@H]2O)[C@@H](O)[C@@H]1O; pH 6.6): 19900 µM
protein (Allochromatium vinosum, UniProt P45370) — Km (CC[C@@H](O)CC(=O)SCCNC(=O)CCNC(=O)[C@H](O)C(C)(C)COP(=O)(O)OP(=O)(O)OC[C@H]1O[C@@H](n2cnc3c(N)ncnc32)[C@H](O)[C@@H]1OP(=O)(O)O; pH 7.8, 30 °C): 110 µM
BaiA1 (Clostridium scindens, UniProt P07914) — Km (C[C@H](CCC(=O)SCCNC(=O)CCNC(=O)[C@H](O)C(C)(C)COP(=O)(O)OP(=O)(O)OC[C@H]1O[C@@H](n2cnc3c(N)ncnc32)[C@H](O)[C@@H]1OP(=O)(O)O)[C@H]1CC[C@H]2[C@@H]3CC[C@@H]4C[C@H](O)CC[C@]4(C)[C@H]3C[C@H](O)[C@]12C; pH 8.7, 37 °C, with: NAD+): 16 µM
enzyme (Trichomonas vaginalis, UniProt A2DJ40) — Km (NC(=O)C1=CN([C@@H]2O[C@H](COP(=O)(O)OP(=O)(O)OC[C@H]3O[C@@H](n4cnc5c(N)ncnc54)[C@H](OP(=O)(O)O)[C@@H]3O)[C@@H](O)[C@H]2O)C=CC1; pH 6.25, 37 °C, cofactor varied): 34.2 µM
B2 (patA) — Km (O=C(O)CCC(=O)C(=O)O; pH 9, 37 °C): 19000 µM
alanine aminopeptidase (Neisseria meningitidis, UniProt Q9JYV4) — Km (NC(=O)Cc1cc(=O)oc2cc(NC(=O)[C@@H](N)C3Cc4ccccc4C3)ccc12; pH 7.5, 37 °C): 48.9 µM
B3 (protein) — Km (Nc1ncnc2nc[nH]c12; pH 7.5, 37 °C, MgCl2 5 mM, with: PRPP 1 mM): 360 µM
trypsin (Saccharopolyspora erythraea, UniProt Q54137) — Km (N=C(N)NCCC[C@H](NC(=O)c1ccccc1)C(=O)Nc1ccc([N+](=O)[O-])cc1; pH 8, 25 °C): 550 µM
B4 (GTPBP3 E315A) — Km (Nc1nc2c(ncn2[C@@H]2O[C@H](COP(=O)(O)OP(=O)(O)OP(=O)(O)O)[C@@H](O)[C@H]2O)c(=O)[nH]1; pH 8, 37 °C, KCl 300 mM): 11.9 µM
B5 (enzyme) — Km (NC(=O)C1=CN([C@@H]2O[C@H](COP(=O)(O)OP(=O)(O)OC[C@H]3O[C@@H](n4cnc5c(N)ncnc54)[C@H](O)[C@@H]3O)[C@@H](O)[C@H]2O)C=CC1; pH 8, 25 °C, cofactor varied): 180 µM
ileS (Streptococcus pneumoniae, UniProt Q04JB0) — Km (CC(C)C[C@H](N)C(=O)O; pH 7.2, 37 °C, with: ATP 2 mM): 3200 µM
B6 (enzyme F187A) — Km (C[S+](CC[C@H](N)C(=O)O)C[C@H]1O[C@@H](n2cnc3c(N)ncnc32)[C@H](O)[C@@H]1O; pH 7.5, 50 °C, apparent): 23 µM
B7 (protein Y93P) — Km (Nc1ccn([C@@H]2O[C@H](CO)[C@@H](O)[C@H]2O)c(=O)n1; pH 7.2, 25 °C, KCl 100 mM, with: ATP 100–200 µM): 555 µM

A few entries again:
B4 (GTPBP3 E315A) — Km (Nc1nc2c(ncn2[C@@H]2O[C@H](COP(=O)(O)OP(=O)(O)OP(=O)(O)O)[C@@H](O)[C@H]2O)c(=O)[nH]1; pH 8, 37 °C, KCl 300 mM): 11.9 µM
protein (Allochromatium vinosum, UniProt P45370) — Km (CC[C@@H](O)CC(=O)SCCNC(=O)CCNC(=O)[C@H](O)C(C)(C)COP(=O)(O)OP(=O)(O)OC[C@H]1O[C@@H](n2cnc3c(N)ncnc32)[C@H](O)[C@@H]1OP(=O)(O)O; pH 7.8, 30 °C): 110 µM
